Assay results gathered from unrelated publications.
Lines come from different studies, so protocols differ. ± marks the error that the study gave.

The metabolized fraction of `Cc1nc(-c2ccc(OCCc3cccc(F)c3)c(C(N)=O)c2)cs1` is reported as 84% (male CD-1 mouse liver microsomes; concentration not given, 30 min, pH 7.4).
For `COc1c(OCCCN2CCOCC2)ccc2c1N=C(NC(=O)c1cnc(N)nc1)N1CCN=C21`, the HbA1c was 5.9 ± 0.5% (human, non-diabetic, normal baseline HbA1c; concentration not given, after treatment).
`C[C@@H]1CC[C@H]2[C@@H](C)C(=O)O[C@@H]3O[C@@]4(C)CC[C@@H]1[C@]32OO4` has an IC50 of 0.008 µM (Plasmodium falciparum; W2).
With `CC(C)C[C@@H]1NC(=O)[C@H](CC(N)=O)NC(=O)[C@H](CCCNC(=N)N)NC(=O)[C@H]([C@@H](C)O)NC(=O)[C@@H]2CSSC[C@@H]3NC(=O)[C@H]([C@@H](C)O)NC(=O)CNC(=O)CNC(=O)[C@H](C(C)C)NC(=O)[C@@H]4CSSC[C@H](NC(=O)[C@H](CCCCN)NC(=O)[C@H](CSSC[C@H](NC(=O)[C@H](C(C)C)NC(=O)[C@@H]5CCCN5C(=O)[C@H](CC(C)C)NC1=O)C(=O)NCC(=O)N[C@@H](CCC(=O)O)C(=O)N[C@@H]([C@@H](C)O)C(=O)N4)NC(=O)CNC(=O)[C@@H]1CCCN1C(=O)[C@H]([C@@H](C)O)NC(=O)[C@H](CC(N)=O)NC3=O)C(=O)N[C@@H](CO)C(=O)N[C@@H](Cc1c[nH]c3ccccc13)C(=O)N1CCC[C@H]1C(=O)N[C@@H](C(C)C)C(=O)N2` the remaining peptide was 97.8 ± 0.6% (HPLC; water; 180 µM, 14 days, 37 °C, deamidation stability).
`CN[C@@H](C)C(=O)N[C@H]1CN(S(=O)(=O)c2cccc(S(=O)(=O)N3CC[C@H]4CC[C@@H](C(=O)NC(c5ccccc5)c5ccccc5)N4C(=O)[C@@H](NC(=O)[C@H](C)NC)C3)c2)CC[C@H]2CC[C@@H](C(=O)NC(c3ccccc3)c3ccccc3)N2C1=O`: “treatment-related ALT elevation incidence” 0% (patients with advanced solid tumours; 0.3 mg, phase I monotherapy).
`O=S(=O)(Nc1ccccc1)c1ccc(NC(=S)Nc2ccccc2)cc1`: “serum enzyme activity” 327 U/L (measured: AST; male mouse, blood; oral, 5 mg/kg daily, 14 days).
`COc1cc2c(Oc3ccc4[nH]c(C)cc4c3F)ccnc2cc1OCC1(N)CC1` — result for “incidence of adverse event”: 6.7% (measured: grade 1 or 2 bone pain; paediatric high-risk refractory sarcoma; 8 mg).
`CCCCCCCCCOC(=O)CCCCCCCN(CCO)CCCCCCCC(=O)OC(CCCCCCCC)CCCCCCCC` — result for tolerability: “not toxic” (measured: IL-6, MCP-1, ALT, AST; BALB/c mice; intravenous, 6 mg/kg siRNA, 6 h cytokines, 24 h ALT/AST, LNP formulation).
With `Clc1cc(Cl)c(-c2cc(Cl)ccc2Cl)c(Cl)c1` the log K(PDMS-water) was 5.98 ± 0.03 (fresh water; 20 °C, SSP sampler, 100 µm).
`O=C(c1ccc(F)c(F)c1Nc1ccc(I)cc1F)N1CC(O)([C@@H]2CCCCN2)C1`: “treatment-related AE causing dose modification” 8% (human patients; oral, 1 mg/kg, dose expansion).
`CO[C@H]1C[C@@H]2CC[C@@H](C)[C@@](O)(O2)C(=O)C(=O)N2CCCC[C@H]2C(=O)O[C@H]([C@H](C)C[C@@H]2CC[C@@H](OC(=O)NCCOCCOCCOCCOCCOCCOCCOCCOCCC(=O)N3CCc4cc(Cn5nc(-c6ccc7oc(N)nc7c6)c6c(N)ncnc65)ccc4C3)[C@H](OC)C2)C[C@@H](O)[C@H](C)/C=C(\C)[C@@H](O)[C@@H](OC)C(=O)[C@H](C)C[C@H](C)/C=C/C=C/C=C/1C` — result for “decreased appetite leading to dose reduction”: 0% (patients with advanced solid tumours; intravenous, 10 mg weekly, grade 3 or higher).
`c1ccc(/N=N/C(=N/Nc2ccccc2)c2ccccc2)cc1` has an IC50 of greater than 100 µM (Gag-Pol polyprotein, integrase (gag-pol, Human immunodeficiency virus 1, UniProt P12497); 3'-processing activity, inhibitor; wild-type integrase).
The IC50 of `CP(=O)(O)CCCN` is reported as 3.98 µM (Plasmodium falciparum; 3D7).
`NC(=O)[C@H]1CCN(c2ncnc(N)c2F)C[C@@H]1N1CCC[C@@H](Nc2cc(Cl)cc(C(F)(F)F)c2)C1=O`: “any grade ≥3 adverse event” 20% (B-cell malignancy patients; oral, 246 mg twice daily, dose).
Under “grade ≥3 Thrombocytopenia incidence”, `CCN1[C@@H](C(=O)NC23CCC(C(=O)O)(CC2)CC3)[C@H](c2cccc(Cl)c2F)[C@]2(C(=O)Nc3cc(Cl)ccc32)C12CCCCC2` is recorded as 33.3% (patients with advanced solid tumours; oral, dose not given, all doses).
`Nc1ncnc2c1ncn2[C@@H]1O[C@@H]2COP(=O)([S-])O[C@@H]3[C@H](O)[C@@H](COP([O-])(=S)O[C@H]2[C@H]1O)O[C@H]3n1cnc2c(N)ncnc21.[Na+].[Na+]` (stereo partly drawn) has a BUN of 8.2 ± 1.85 mmol/L (non-tumor-bearing mice, serum; intravenous, 1 mg/kg, toxicity study).
`CN1CC[C@@H](c2c(O)cc(O)c3c(=O)cc(-c4ccc(C(F)(F)F)cc4Cl)oc23)[C@@H]1CO` — result for “patients with adverse event”: 0% (measured: Constipation; B-cell malignancies; oral, 100 mg, intermittent dosing).
For `CC1(C)[C@@H](O[C@H]2O[C@H](C(=O)O)[C@@H](O)[C@H](O)[C@H]2O[C@@H]2O[C@H](C(=O)O)[C@@H](O)[C@H](O)[C@H]2O)CC[C@]2(C)[C@H]3C(=O)C=C4[C@@H]5C[C@@](C)(C(=O)O)CC[C@]5(C)CC[C@@]4(C)[C@]3(C)CC[C@@H]12`, the Vz/F was 0.43 ± 0.2 L/kg (Sprague Dawley rat, plasma; oral, 3.34 g lyophilized powder/kg, low dose).
